Assay results of several laboratories.
Parts stem from different laboratories: compare values within a part only. Several values in a cell are separate wells, animals, samples, runs or records. Substitutions count along the parent as printed.
UniProt O60674, sequence (whole entry, looked up): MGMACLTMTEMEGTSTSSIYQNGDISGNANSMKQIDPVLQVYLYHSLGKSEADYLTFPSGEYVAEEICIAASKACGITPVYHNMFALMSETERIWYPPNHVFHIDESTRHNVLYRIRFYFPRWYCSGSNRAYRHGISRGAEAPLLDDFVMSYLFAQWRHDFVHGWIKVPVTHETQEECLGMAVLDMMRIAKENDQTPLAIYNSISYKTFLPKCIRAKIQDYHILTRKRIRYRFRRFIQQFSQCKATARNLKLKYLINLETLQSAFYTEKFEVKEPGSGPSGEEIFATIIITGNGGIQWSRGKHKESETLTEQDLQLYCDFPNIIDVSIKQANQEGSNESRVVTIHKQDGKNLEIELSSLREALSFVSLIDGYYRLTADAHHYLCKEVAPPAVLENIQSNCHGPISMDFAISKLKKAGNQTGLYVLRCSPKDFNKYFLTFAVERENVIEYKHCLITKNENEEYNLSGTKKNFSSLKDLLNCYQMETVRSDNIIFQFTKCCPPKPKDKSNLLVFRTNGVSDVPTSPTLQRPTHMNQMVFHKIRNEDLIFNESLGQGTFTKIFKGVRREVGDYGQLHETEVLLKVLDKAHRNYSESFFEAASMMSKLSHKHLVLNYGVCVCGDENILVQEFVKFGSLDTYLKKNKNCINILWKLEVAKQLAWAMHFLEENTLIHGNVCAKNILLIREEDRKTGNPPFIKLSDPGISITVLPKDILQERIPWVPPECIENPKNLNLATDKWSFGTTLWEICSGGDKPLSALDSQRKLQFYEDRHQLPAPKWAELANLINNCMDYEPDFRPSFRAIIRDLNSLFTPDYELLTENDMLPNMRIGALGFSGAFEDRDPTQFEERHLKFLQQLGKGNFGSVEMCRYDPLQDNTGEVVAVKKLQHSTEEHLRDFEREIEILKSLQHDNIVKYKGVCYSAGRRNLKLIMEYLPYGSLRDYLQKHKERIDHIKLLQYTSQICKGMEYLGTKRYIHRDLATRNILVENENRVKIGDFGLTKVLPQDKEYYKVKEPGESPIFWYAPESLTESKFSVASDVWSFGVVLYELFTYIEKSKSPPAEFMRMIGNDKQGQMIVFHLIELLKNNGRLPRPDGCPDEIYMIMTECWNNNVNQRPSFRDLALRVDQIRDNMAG

Study 1 — target: CCNB3, cyclin fold, Cln2 fusion (human); method: yeast growth competition, sequencing; medium: yeast; setting: strong parent motif; reference: not given; reading: higher = stronger binding
Starting sequence: viral docking peptide; YKVKRRLVFGADD; partner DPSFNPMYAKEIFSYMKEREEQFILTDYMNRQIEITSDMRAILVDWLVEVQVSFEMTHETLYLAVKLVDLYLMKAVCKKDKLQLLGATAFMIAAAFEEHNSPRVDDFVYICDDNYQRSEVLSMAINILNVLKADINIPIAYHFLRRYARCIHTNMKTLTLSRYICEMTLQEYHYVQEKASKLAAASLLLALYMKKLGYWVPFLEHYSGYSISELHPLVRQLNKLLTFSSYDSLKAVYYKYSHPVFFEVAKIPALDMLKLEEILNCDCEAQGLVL
`YKVKRRLFFGADD [V8F]`: “normalised enrichment score” 1.95.
`YKVFRRLVFGADD [K4F]`: “normalised enrichment score” 0.322.
`YKVKRRLVFGKDD [A11K]` — result for “normalised enrichment score”: 1.59.
`YKRKRRLVFGADD [V3R]`: “normalised enrichment score” -0.0102.
`YKVKRRLLFGADD [V8L]`: “normalised enrichment score” 1.28.
`YKVKRHLVFGADD [R6H]` — result for “normalised enrichment score”: 0.195.
For `YKVKRRRVFGADD [L7R]`, “normalised enrichment score” read -0.264.
Under “normalised enrichment score”, `YKVKRRLWFGADD [V8W]` is recorded as 0.874.

Study 2 — read-out: peptide-MHC binding; molecule type: peptide; concentration: concentration not given
Target: HLA class I histocompatibility antigen, A alpha chain, allele A*25:01 (Homo sapiens, UniProt P04439)
For `LMTHTWHAK`, binding read “inactive”.
`FRYEFTAPF`: binding “inactive”.
Under binding, `CLSPVVAGL` is recorded as “inactive”.
`FTWQHNYYL` — result for binding: “inactive”.
Under binding, `MFKNFPFFK` is recorded as “inactive”.
`LQKIPLQWF` — result for binding: “inactive”.
`WLGDVWQEK` — result for binding: “inactive”.
For `KLGDITLFL`, binding read “inactive”.

Further values, each from its own experiment
The GFP-positive cells of `CO/N=C(\C(=O)N[C@@H]1C(=O)N2C(C(=O)OCOC(=O)C(C)(C)C)=C(/C=C\c3scnc3C)CS[C@H]12)c1csc(N)n1` is reported as 96.3% (HEK-293T; pseudovirus infection, FDA-approved drug library counter-screen; VSV pseudotyped with VSV-G; 10 µM, 16 h; reference: vehicle-treated).
`CN[C@@H]1C[C@H]2O[C@@](C)([C@@H]1OC)n1c3ccccc3c3c4c(c5c6ccccc6n2c5c31)C(=O)NC4` has a remaining activity of 8.94% and 1.85% (Tyrosine-protein kinase JAK2 (JAK2, Homo sapiens, UniProt O60674); enzyme activity, inhibitor; 0.5 µM; reference: control).

For quick reference, copied from above (study 1):
`YKVKRHLVFGADD [R6H]` — result for “normalised enrichment score”: 0.195.
For `YKVKRRRVFGADD [L7R]`, “normalised enrichment score” read -0.264.
Under “normalised enrichment score”, `YKVKRRLWFGADD [V8W]` is recorded as 0.874.
